# Experimental data collected from several papers.
# Every numbered part comes from another study and shows a few of its results, in no order.
# Chain of UniProt Q32MK0 (whole entry, looked up): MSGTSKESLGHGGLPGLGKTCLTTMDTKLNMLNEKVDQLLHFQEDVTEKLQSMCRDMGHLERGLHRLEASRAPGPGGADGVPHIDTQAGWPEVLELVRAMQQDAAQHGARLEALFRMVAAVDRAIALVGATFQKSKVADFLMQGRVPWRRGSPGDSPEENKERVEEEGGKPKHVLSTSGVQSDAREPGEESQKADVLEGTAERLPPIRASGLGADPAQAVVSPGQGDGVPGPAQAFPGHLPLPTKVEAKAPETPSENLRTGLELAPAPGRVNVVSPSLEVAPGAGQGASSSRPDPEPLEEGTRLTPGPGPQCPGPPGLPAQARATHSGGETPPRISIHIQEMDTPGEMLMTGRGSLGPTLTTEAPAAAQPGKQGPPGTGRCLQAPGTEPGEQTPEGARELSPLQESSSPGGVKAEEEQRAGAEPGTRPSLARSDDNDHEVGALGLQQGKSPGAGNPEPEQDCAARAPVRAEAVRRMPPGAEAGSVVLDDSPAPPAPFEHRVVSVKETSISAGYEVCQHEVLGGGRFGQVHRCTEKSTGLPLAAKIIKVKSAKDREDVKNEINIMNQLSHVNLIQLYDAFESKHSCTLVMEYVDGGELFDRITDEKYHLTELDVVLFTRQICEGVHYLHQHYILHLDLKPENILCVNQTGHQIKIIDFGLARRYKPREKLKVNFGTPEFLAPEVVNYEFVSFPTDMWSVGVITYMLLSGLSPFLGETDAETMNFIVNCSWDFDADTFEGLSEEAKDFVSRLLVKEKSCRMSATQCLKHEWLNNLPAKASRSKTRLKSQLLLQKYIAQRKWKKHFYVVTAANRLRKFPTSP
# Chain of UniProt P51817 (whole entry, looked up): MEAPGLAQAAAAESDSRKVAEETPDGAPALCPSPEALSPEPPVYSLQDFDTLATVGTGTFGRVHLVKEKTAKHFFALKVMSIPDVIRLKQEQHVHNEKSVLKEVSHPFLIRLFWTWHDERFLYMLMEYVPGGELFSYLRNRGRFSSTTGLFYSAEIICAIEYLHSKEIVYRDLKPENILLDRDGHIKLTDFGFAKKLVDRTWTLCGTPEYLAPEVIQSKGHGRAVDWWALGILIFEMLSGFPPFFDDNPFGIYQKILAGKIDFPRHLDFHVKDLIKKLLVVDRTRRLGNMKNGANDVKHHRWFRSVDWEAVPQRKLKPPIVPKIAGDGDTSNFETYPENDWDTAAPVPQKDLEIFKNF
# Chain of UniProt Q9C098 (whole entry, looked up): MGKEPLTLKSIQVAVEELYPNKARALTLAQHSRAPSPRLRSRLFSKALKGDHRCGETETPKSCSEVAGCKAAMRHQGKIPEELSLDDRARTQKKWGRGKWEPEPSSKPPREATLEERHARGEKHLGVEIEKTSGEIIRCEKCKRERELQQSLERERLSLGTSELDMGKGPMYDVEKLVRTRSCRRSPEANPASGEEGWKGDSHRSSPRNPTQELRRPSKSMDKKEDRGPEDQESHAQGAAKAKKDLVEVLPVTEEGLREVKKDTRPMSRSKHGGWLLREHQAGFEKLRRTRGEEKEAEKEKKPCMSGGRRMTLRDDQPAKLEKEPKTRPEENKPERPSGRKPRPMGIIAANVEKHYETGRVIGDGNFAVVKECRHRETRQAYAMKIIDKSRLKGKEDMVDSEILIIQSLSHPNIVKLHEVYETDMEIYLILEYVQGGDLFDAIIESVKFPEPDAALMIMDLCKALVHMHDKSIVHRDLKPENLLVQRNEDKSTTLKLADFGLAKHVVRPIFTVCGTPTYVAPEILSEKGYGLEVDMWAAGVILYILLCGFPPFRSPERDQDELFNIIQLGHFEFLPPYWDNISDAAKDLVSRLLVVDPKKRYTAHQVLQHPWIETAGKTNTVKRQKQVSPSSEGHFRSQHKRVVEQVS
# Chain of UniProt Q13557 (whole entry, looked up): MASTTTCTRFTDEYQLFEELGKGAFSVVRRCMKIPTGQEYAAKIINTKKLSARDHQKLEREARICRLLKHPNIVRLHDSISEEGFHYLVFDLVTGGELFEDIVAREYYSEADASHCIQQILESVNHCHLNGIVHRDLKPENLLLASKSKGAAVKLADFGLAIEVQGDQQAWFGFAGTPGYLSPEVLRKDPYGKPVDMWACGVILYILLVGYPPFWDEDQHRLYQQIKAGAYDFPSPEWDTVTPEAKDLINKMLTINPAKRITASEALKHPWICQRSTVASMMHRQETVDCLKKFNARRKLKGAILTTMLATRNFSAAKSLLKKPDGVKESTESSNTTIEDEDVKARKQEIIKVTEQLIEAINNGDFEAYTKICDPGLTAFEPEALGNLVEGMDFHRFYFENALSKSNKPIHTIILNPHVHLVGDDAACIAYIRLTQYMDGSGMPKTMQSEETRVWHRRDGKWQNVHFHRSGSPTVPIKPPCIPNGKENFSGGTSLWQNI
# Chain of UniProt P36507 (whole entry, looked up): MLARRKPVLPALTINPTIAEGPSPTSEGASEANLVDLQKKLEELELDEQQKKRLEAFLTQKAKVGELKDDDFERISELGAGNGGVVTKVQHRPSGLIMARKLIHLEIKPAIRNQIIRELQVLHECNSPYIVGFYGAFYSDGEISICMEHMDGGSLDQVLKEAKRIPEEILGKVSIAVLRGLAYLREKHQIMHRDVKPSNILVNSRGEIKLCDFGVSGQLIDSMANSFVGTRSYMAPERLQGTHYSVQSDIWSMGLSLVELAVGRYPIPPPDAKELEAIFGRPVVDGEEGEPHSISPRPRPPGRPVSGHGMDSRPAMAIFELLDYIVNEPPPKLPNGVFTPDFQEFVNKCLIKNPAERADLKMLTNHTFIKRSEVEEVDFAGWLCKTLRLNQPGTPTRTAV
# Chain of UniProt O43293 (whole entry, looked up): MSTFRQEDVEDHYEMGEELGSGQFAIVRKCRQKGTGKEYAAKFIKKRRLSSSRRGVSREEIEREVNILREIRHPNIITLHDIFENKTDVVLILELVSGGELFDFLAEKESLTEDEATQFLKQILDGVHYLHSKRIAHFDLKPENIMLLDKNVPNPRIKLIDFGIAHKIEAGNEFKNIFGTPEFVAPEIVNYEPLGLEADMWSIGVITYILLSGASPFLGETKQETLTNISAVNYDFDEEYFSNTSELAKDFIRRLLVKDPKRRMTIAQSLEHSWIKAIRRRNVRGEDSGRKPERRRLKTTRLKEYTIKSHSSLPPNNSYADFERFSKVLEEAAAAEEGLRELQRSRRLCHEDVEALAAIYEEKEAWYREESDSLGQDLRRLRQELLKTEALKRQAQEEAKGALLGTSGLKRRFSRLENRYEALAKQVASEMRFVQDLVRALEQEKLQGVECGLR
# Chain of UniProt P51956 (whole entry, looked up): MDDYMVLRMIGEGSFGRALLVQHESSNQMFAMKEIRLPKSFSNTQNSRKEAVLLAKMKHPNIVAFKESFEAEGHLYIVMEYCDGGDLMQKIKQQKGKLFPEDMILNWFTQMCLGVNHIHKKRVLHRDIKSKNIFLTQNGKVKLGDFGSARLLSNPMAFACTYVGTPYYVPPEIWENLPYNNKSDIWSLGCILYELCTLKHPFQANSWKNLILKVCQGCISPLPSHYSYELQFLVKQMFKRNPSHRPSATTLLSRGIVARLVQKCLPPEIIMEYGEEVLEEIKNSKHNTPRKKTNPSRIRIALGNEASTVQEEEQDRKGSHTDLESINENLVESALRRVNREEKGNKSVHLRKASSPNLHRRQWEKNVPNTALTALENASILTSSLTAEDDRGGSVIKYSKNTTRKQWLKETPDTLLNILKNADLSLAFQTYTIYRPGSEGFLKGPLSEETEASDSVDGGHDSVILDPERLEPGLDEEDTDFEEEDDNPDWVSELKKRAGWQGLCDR

# Sample 1 — mode: inhibitor; tested at: 1 µM
# Structure (SMILES): C=CC(=O)N1CCC[C@@H](n2nc(-c3ccc(Oc4ccccc4)cc3)c3c(N)ncnc32)C1
target,assay,inhibition [%]
"Serine/threonine-protein kinase DCLK3 (DCLK3, Homo sapiens, UniProt Q9C098)",enzyme activity,0
"Protein kinase C epsilon type (PRKCE, Homo sapiens, UniProt Q02156)",,10
"Death-associated protein kinase 3 (DAPK3, Homo sapiens, UniProt O43293)",enzyme activity,3
"Calcium/calmodulin-dependent protein kinase type II subunit delta (CAMK2D, Homo sapiens, UniProt Q13557)",enzyme activity,7
"cAMP-dependent protein kinase catalytic subunit PRKX (PRKX, Homo sapiens, UniProt P51817)",enzyme activity,26

# Sample 2 — read-out: enzyme activity; mode: inhibitor; tested at: 0.5 µM; relative to: control
# Target: STE20-like serine/threonine-protein kinase (SLK, Homo sapiens, UniProt Q9H2G2)
# Chain of UniProt Q9H2G2 (whole entry, looked up): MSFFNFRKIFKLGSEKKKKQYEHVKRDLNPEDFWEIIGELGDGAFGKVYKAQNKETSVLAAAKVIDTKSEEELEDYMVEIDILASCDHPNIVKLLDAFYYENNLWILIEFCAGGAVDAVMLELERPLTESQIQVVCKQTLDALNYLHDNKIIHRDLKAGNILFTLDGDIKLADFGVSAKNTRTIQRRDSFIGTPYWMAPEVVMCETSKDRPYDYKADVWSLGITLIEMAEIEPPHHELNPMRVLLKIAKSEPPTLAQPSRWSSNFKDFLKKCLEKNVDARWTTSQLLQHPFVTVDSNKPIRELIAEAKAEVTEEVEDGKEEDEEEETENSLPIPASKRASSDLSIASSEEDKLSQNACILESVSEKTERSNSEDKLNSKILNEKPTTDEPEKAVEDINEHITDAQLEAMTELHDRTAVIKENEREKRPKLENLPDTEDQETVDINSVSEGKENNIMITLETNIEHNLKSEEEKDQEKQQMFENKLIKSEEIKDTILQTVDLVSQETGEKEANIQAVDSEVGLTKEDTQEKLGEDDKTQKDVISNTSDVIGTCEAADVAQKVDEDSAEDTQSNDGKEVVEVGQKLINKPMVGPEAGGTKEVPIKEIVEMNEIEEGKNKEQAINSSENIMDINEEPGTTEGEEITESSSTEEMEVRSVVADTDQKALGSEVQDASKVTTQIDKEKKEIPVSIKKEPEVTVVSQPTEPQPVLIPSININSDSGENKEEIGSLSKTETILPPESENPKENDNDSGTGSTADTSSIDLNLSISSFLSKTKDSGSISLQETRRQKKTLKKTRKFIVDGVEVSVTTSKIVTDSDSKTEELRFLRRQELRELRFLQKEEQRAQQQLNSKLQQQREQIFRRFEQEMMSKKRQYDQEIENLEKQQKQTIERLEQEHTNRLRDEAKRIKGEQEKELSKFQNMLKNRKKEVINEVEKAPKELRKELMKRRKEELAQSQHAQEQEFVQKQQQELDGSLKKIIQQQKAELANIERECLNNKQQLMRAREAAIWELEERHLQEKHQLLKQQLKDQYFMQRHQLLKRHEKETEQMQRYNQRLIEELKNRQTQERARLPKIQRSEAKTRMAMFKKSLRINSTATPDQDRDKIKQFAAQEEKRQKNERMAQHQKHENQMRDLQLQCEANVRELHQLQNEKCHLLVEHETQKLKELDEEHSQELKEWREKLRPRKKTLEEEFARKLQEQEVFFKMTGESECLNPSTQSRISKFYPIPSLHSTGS
SMILES,remaining activity [%]
O=C(O)c1ccc2c3c1cccc3c(=O)n1c3ccccc3nc21,94.1
O=S(=O)(c1cccc2cnccc12)N1CCCNCC1,95.8
C#Cc1cccc(Nc2ncnc3cc(OCCOC)c(OCCOC)cc23)c1,42
O=C1NC(=O)C(c2cn(CCCO)c3ncccc23)=C1c1cnccn1,106
COc1cc2ncnc(Nc3ccc(F)c(Cl)c3)c2cc1OCCCN1CCOCC1,83.7
Oc1ccc(-c2nc(-c3ccncc3)c(-c3ccc(F)cc3)[nH]2)cc1,91.2
COc1ccc(OC)c2c(=S)c3ccccc3[nH]c12,80.2
Cc1cccc(-c2[nH]c(C(C)(C)C)nc2-c2ccc3c(c2)OCO3)n1,108
Nc1ccc2ncnc(NCCc3ccc(Oc4ccccc4)cc3)c2c1,102
Cn1c2ccccc2c2c3c(c4c5ccccc5n(CCC#N)c4c21)CNC3=O,34.1
O=C1NC(=O)C(c2cn(CCCn3ccnc3)c3ccccc23)=C1Nc1ccccc1,39.1
CN(C)c1ccc(C=C2C(=O)Nc3ccccc32)cc1,103
COc1ccc(C(=O)Nc2sc3c(c2C(N)=O)CCCC3)cc1OC,92.5
CC(C)[C@H](CO)Nc1nc(Nc2cc(N)cc(Cl)c2)c2ncn(C(C)C)c2n1,39.8
Nc1ncnc2n[nH]c(Nc3ccc(F)cc3)c12,99.5

# Sample 3 — read-out: cell-free assay; method: competition with immobilised ligand; tested at: 0.1 µM
# Compound: Cc1cc(C)c(-n2ccn3nc(-c4cccnc4)cc23)cc1NC(=O)c1cc(C#N)cc(S(F)(F)(F)(F)F)c1
target,remaining binding [%]
"Myosin light chain kinase (MYLK3, Homo sapiens, UniProt Q32MK0)",100
"Tyrosine-protein kinase receptor TYRO3 (TYRO3, Homo sapiens, UniProt Q06418)",72.4
"Serine/threonine-protein kinase Nek3 (NEK3, Homo sapiens, UniProt P51956)",70.7
"Dual specificity mitogen-activated protein kinase kinase 2 (MAP2K2, Homo sapiens, UniProt P36507)",74.4
"Serine/threonine-protein kinase WNK1 (WNK1, Homo sapiens, UniProt Q9H4A3)",97.3

# Sample 4 — cell line: mouse MPNST tumor cells; method: high-content nuclear imaging; item: cell number; tested at: 10 µM; time: 12 h; notes: mean of 2 replicates; relative to: plate mean; reading: higher = more cells
SMILES,nuclei count [z-score]
CC(C)C[C@@H](C(=O)N[C@@H](Cc1ccc(OCc2ccccc2)cc1)C(=O)NC(C)(C)C)N(C)Cc1ccc(C(C)(C)C)cc1,1.48
Cc1cc(CC(=O)O)n(C)c1C(=O)c1ccc(Cl)cc1,0.847
O=C(Nc1ccccc1)c1ccc(NC(=O)c2ccc(Cl)cc2Cl)cc1,0.26
COc1ccc(-c2cc3c(C)nc(N)nc3n([C@H]3CC[C@H](OCCO)CC3)c2=O)cn1,-3.49
Cc1cc2c(cc1Cl)N(C(=O)Nc1ccc(Oc3cccnc3C)nc1)CC2,0.145
N#Cc1cc(NC(=O)C(=O)O)c(Cl)c(NC(=O)C(=O)O)c1,1.2
Nc1nc(=O)n([C@@H]2CS[C@H](CO)O2)cc1F,1.25

# A few entries again (sample 2):
SMILES,remaining activity [%]
Nc1ncnc2n[nH]c(Nc3ccc(F)cc3)c12,99.5
COc1ccc(C(=O)Nc2sc3c(c2C(N)=O)CCCC3)cc1OC,92.5
Cn1c2ccccc2c2c3c(c4c5ccccc5n(CCC#N)c4c21)CNC3=O,34.1
O=S(=O)(c1cccc2cnccc12)N1CCCNCC1,95.8
C#Cc1cccc(Nc2ncnc3cc(OCCOC)c(OCCOC)cc23)c1,42
